Experimental data gathered from unrelated publications.
Organism: Staphylococcus epidermidis

Structure (SMILES) | test | system | conditions | how to read | quantity | value
C[C@H]1COc2c(N3CCN(C)CC3)c(F)cc3c(=O)c(C(=O)N[C@@H](CCCNC(=N)N)C(=O)N[C@@H](Cc4ccc(-c5ccccc5)cc4)C(=O)N[C@@H](CCCNC(=N)N)C(=O)N[C@@H](Cc4ccc(-c5ccccc5)cc4)C(=O)N[C@@H](CCCNC(=N)N)C(N)=O)cn1c23 | broth microdilution | ATCC 700565 | – | reference: MIC of unconjugated components | fold MIC improvement | 2.5 fold
Cc1cc(/C=C2\Sc3ccccc3N2CCCN2CCCC2)c2ccccc2[n+]1C | microbial growth, broth dilution | ATCC12228 | – | – | MIC | 4 µg/mL
Oc1c(Br)cc(Br)c2nc3cc(SC(F)(F)F)ccc3nc12 | broth microdilution | MRSE 35984 | – | – | MIC | 0.1 µM
Oc1c(Br)ccc2cccnc12 | microbial growth, agar dilution | ATCC12228 | – | – | MIC | 35.7 µM
CCCCN(CCCC)CC(O)COc1c2ccoc2c(OC)c2oc(CC)cc(=O)c12 (stereo not shown) | broth microdilution | ATCC 35984 | 19 h, 35 °C | – | MIC | 128 µg/mL
CCCCCCCCCCCC[S+]([O-])CC1OC(OC2C(N)CC(N)C(OC3OC(CN)C(O)CC3N)C2O)C(O)C(N)C1O (mixture of isomers) | – | – | – | – | MIC | 4.7 µg/mL
Oc1c(Br)cc(Br)c2nc3cc(I)ccc3nc12 | microbial growth, broth dilution | 12228 | – | – | MIC | 0.08 µM
O=C(O)CN1C(=O)/C(=C/c2ccc(-c3ccc(N(c4ccccc4)c4ccccc4)cc3)cc2)NC1=S | broth microdilution | ATCC 12228 | – | – | MBC/MIC ratio | 2
CC1CCN(CCCN2/C(=C/c3cc(/C=C/c4c[nH]c5ccccc45)[n+](C)c4ccccc34)Sc3ccccc32)CC1 | microbial growth, broth dilution | ATCC12228 | – | – | MIC | 16 µg/mL
Oc1c(Br)c(Cl)c(Br)c2nc3c(C(F)(F)F)cc(C(F)(F)F)cc3nc12 | broth microdilution | MRSE 35984 | – | – | MIC | 0.2 µM

Some of these lines once more:
Structure (SMILES) | test | system | conditions | how to read | quantity | value
Oc1c(Br)cc(Br)c2nc3cc(I)ccc3nc12 | microbial growth, broth dilution | 12228 | – | – | MIC | 0.08 µM
